Results collected from several papers.
± gives the spread as reported.
rep R3428I 3C-like proteinase: Replicase polyprotein 1ab, 3C-like proteinase (rep, Severe acute respiratory syndrome-related coronavirus, UniProt P0C6X7, R3428I)
Botulinum neurotoxin type A light chain: Botulinum neurotoxin type A, light chain (Clostridium botulinum, UniProt P0DPI0)
Ricin A chain: Ricin, A chain (Ricinus communis, UniProt P02879)
Shiga-like toxin 2 subunit A A1 fragment: Shiga-like toxin 2 subunit A, A1 fragment (UniProt P09385)
Chrna3/Chrnb2/Chrna6 with beta3 subunit: Chrna3/Chrnb2/Chrna6, with beta3 subunit (Rattus norvegicus, UniProt P04757+P12390+P43143)
Replicase polyprotein 1a R3428I 3C-like proteinase: Replicase polyprotein 1a, 3C-like proteinase (Severe acute respiratory syndrome-related coronavirus, UniProt P0C6U8, R3428I)

Amino acid sequences for entries named in this document (tags omitted). Residues count along the entry.
UniProt P04757, whole entry, looked up: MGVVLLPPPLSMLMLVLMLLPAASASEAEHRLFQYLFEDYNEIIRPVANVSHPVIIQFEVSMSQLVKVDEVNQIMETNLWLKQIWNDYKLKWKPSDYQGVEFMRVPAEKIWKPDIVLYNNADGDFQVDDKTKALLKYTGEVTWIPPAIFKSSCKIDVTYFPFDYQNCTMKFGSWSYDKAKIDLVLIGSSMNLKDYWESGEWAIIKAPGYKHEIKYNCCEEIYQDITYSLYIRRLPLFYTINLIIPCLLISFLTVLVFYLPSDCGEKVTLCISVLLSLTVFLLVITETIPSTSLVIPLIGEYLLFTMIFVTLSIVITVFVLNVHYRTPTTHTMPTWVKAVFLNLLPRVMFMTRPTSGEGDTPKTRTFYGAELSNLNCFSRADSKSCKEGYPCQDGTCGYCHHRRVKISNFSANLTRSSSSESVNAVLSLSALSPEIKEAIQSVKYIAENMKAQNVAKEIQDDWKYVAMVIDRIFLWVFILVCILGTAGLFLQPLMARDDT
UniProt P12390, whole entry, looked up: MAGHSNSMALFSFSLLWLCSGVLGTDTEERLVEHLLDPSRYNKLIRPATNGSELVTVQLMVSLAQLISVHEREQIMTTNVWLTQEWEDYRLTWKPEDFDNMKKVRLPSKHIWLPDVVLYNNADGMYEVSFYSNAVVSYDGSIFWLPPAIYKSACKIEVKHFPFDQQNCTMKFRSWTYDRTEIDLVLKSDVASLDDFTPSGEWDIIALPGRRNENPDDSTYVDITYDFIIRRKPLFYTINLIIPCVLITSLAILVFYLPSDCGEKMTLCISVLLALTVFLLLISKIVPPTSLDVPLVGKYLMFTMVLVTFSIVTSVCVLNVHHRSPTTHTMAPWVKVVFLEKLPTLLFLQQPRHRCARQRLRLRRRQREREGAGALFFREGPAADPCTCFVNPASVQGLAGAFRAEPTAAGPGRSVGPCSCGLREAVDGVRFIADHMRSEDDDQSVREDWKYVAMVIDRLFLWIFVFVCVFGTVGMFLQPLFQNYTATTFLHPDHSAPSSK
UniProt P12390, 25-500 limits assumed: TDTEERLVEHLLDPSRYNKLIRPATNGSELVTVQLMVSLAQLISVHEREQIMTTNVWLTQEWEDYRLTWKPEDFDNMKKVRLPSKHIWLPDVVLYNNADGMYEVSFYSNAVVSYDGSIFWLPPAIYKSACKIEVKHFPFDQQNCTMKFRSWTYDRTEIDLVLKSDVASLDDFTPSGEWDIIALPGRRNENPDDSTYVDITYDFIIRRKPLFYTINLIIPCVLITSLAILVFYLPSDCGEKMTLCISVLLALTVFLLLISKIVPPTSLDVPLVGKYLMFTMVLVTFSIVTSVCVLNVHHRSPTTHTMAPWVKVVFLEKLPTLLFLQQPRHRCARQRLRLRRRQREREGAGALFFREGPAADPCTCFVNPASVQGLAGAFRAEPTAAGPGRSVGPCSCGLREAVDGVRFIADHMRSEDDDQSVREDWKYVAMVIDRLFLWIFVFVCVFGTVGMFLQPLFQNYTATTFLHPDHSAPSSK
UniProt P43143, whole entry M241L/F253L/V303I/V320I/I327V/A333T/K339T, looked up: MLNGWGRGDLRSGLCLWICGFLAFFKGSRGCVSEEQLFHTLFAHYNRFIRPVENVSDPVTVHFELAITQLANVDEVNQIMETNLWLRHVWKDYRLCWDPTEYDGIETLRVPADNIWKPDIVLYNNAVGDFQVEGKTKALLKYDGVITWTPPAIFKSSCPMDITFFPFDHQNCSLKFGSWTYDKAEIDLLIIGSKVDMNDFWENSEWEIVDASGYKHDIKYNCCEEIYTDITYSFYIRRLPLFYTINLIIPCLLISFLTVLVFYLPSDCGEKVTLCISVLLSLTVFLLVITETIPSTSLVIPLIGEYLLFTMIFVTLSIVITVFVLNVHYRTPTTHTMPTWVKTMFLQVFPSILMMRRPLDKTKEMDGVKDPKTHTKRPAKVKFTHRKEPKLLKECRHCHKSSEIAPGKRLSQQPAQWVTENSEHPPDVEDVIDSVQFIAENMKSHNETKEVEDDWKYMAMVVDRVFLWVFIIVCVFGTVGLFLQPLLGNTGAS
UniProt P35372, whole entry: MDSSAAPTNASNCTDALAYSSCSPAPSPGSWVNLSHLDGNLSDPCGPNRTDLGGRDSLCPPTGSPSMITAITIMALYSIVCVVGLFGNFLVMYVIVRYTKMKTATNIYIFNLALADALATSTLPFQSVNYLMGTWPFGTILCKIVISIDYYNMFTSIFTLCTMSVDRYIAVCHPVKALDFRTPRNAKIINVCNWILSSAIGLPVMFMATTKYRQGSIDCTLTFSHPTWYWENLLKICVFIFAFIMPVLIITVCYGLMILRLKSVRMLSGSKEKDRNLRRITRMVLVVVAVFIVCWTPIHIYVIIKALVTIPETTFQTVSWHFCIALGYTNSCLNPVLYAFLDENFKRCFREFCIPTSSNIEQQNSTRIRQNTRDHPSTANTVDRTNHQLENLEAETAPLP
UniProt Q9GZZ6, 25-450 limits assumed: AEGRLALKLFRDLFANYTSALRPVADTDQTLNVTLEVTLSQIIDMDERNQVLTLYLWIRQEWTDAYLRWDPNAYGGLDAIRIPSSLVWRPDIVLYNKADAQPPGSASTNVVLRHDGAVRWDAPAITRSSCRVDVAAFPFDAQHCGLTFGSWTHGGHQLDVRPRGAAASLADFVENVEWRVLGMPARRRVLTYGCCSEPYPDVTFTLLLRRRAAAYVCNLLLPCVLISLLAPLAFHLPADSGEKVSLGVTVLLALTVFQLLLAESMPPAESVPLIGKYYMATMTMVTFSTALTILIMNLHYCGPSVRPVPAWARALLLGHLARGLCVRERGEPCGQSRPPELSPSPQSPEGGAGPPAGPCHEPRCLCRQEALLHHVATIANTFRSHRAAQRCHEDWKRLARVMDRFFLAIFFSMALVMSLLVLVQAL
UniProt Q9UGM1, 26-479 limits assumed: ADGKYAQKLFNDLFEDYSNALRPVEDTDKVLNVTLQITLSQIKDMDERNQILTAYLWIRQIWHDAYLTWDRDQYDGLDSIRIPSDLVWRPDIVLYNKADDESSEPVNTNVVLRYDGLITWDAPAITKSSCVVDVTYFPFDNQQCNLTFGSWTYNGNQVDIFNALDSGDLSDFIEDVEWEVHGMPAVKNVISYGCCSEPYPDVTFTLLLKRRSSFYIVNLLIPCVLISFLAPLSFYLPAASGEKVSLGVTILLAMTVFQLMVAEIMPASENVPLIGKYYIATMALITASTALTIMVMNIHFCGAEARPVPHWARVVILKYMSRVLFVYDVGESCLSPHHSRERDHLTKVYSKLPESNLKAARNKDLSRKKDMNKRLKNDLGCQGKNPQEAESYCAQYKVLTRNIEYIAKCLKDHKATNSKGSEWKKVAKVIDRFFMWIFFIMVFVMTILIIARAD
UniProt P22303, 32-614 limits assumed: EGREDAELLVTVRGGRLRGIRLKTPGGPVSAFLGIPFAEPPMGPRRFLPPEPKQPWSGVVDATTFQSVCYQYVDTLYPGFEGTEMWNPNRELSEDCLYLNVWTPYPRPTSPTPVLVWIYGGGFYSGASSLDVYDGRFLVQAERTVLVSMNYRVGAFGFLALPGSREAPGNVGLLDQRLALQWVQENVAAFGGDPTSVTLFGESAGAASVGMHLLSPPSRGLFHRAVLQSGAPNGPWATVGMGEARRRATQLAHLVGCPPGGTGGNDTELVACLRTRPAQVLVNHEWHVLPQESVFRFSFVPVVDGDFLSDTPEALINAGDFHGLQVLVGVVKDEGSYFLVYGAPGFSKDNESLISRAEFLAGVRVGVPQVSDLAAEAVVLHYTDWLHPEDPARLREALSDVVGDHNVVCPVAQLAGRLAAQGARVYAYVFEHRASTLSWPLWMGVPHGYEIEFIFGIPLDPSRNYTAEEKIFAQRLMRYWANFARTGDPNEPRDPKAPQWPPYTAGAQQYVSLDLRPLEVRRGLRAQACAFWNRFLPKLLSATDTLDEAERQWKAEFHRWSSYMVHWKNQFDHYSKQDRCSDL
UniProt P09483, 31-630 limits assumed: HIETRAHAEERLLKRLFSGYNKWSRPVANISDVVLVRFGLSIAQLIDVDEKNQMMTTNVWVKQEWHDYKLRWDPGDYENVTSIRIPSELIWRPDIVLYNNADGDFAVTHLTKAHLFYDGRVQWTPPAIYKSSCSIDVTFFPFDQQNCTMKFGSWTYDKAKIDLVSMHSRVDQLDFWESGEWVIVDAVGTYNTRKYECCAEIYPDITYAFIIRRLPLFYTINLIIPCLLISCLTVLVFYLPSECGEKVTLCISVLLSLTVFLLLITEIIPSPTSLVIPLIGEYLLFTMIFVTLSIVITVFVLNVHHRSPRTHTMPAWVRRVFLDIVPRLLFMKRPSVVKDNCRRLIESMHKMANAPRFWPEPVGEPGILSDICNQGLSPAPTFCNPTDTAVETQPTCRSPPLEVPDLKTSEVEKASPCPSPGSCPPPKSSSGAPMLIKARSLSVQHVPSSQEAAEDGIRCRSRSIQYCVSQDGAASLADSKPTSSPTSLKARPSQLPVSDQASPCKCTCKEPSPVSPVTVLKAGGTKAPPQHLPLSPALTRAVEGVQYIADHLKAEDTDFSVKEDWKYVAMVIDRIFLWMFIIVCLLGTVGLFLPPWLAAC

| Structure (SMILES) | target | assay | system | conditions | IC50 |
| --- | --- | --- | --- | --- | --- |
| CC(C)COC(=O)N[C@H](C(=O)N[C@@H](CC(C)C)C(=O)N[C@@H](C[C@@H]1CCNC1=O)C(=O)c1nccs1)C(C)C | rep R3428I 3C-like proteinase | enzyme activity, inhibitor, HPLC |  | 60 min, 37 °C, with: substrate 111 µM | 250 µM |
| CC1=Nc2ccccc2/C1=C/c1sc(=S)n(-c2cccc(C(=O)O)c2)c1O | Botulinum neurotoxin type A light chain | inhibitor, FRET, YFP-SNAP25-CFP substrate |  | no reducing agent | 70 ± 30 µM |
| COc1cccc(/C=C/C(=O)N[C@@H](COC(=O)c2ccccc2)C(=O)NC2CCCCC2)c1 | rep R3428I 3C-like proteinase | enzyme activity, inhibitor, HPLC substrate depletion |  | pH 4.0 | 98 µM |
| CNC(=O)c1cnc2c(=O)[nH]c(N)nc2n1 | Ricin A chain | recovery of translation, inhibitor, in vitro luciferase translation | rabbit reticulocyte lysate |  | 1600 µM |
| CSCC[C@H](NC(=O)[C@@H](N)CC(=O)O)C(=O)NCC(=O)N[C@@H](Cc1ccccc1)C(=O)NCC(=O)N[C@@H](CC(C)C)C(=O)N[C@@H](Cc1ccccc1)C(=O)N[C@@H](CC(=O)O)C(=O)O | Shiga-like toxin 2 subunit A A1 fragment | ribosome depurination | yeast ribosomes | pH 7.4 | 23 ± 4 µM |
| O=C(/C=C/c1ccc(OC(=O)c2ccccc2)cc1)N[C@@H](COC(=O)c1ccccc1)C(=O)NC1CCCCC1 | rep R3428I 3C-like proteinase | enzyme activity, inhibitor, HPLC substrate depletion |  | pH 4.0 | 95 µM |
| O=C(O)c1cc(-c2ccc(-c3c(-c4ccc5c(c4)OCO5)noc3-c3ccsc3)cc2)nc2ccccc12 | Botulinum neurotoxin type A light chain | inhibitor, FRET, SNAPtide substrate |  | no reducing agent | > 200 µM |
| CC(C)C[C@@H]1NC(=O)[C@H](CCC(=O)O)NC(=O)[C@@H]2CCCN2C(=O)[C@H](Cc2c[nH]cn2)NC(=O)[C@H](CCCC(=O)O)NC(=O)[C@H](CC(C)C)NC(=O)[C@H](Cc2c[nH]cn2)NC(=O)[C@@H]2CSSC[C@H](NC(=O)CN)C(=O)N[C@@H](CSSC[C@@H](C(N)=O)NC1=O)C(=O)N[C@@H](CO)C(=O)N[C@@H](Cc1c[nH]cn1)C(=O)N1CCC[C@H]1C(=O)N[C@@H](C)C(=O)N2 | Chrna3/Chrnb2/Chrna6 with beta3 subunit | ion current, antagonist, two-electrode voltage clamp | Xenopus laevis oocytes | with: 100 µM acetylcholine | 0.155 µM |
| C=Cc1cc(O)c([C@@H]2C=C(C)CC[C@H]2C(=C)C)c(O)c1 | OPRM1 (Homo sapiens, UniProt P35372) | cAMP level, antagonist | HEK293 expressing human µ-opioid receptor | with: fentanyl 500 pM (EC95) | 0.19 µM |
| CC(C)C[C@H](NC(=O)[C@@H](NC(=O)OCC(C)(C)C)C(C)C)C(=O)N[C@@H](C[C@@H]1CCNC1=O)C(=O)c1nccs1 | rep R3428I 3C-like proteinase | enzyme activity, inhibitor, HPLC |  | 60 min, 37 °C, with: substrate 111 µM | 280 µM |
| C[C@@H]1NC(=O)[C@H](CCCNC(=N)N)NC(=O)[C@H](CCCNC(=N)N)NC(=O)[C@H](Cc2c[nH]cn2)NC(=O)[C@H](CO)NC(=O)[C@H](CCCCN)NC(=O)[C@@H]2CSSC[C@H](NC(=O)CN)C(=O)N[C@@H](CSSC[C@@H](C(N)=O)NC(=O)[C@H](CCCNC(=N)N)NC1=O)C(=O)N[C@@H](CO)C(=O)N[C@@H](Cc1c[nH]cn1)C(=O)N1CCC[C@H]1C(=O)N[C@@H](C)C(=O)N2 | Neuronal acetylcholine receptor; alpha9/alpha10 (Homo sapiens, UniProt Q9GZZ6+Q9UGM1) | ion current, antagonist, two-electrode voltage clamp | Xenopus oocytes | holding -70 mV, with: 100 µM acetylcholine | 0.133 µM |
| CC(=O)N[C@@H](Cc1c[nH]cn1)C(=O)OC[C@H](NC(=O)/C=C/c1ccccc1)C(=O)NC1CCCCC1 | rep R3428I 3C-like proteinase | enzyme activity, inhibitor, HPLC substrate depletion |  | pH 4.0 | > 3200 µM |
| CC(C)C[C@H](NC(=O)[C@@H](NC(=O)CNCc1ccccc1)C(C)C)C(=O)N[C@@H](C[C@@H]1CCNC1=O)C(=O)c1nc2ccccc2s1 | rep R3428I 3C-like proteinase | enzyme activity, inhibitor, HPLC |  | 60 min, 37 °C, with: substrate 111 µM | 7.5 µM |
| CNC(=O)ON=CC(C)(C)SC | Acetylcholinesterase (Cavia porcellus, UniProt D3YE96) | Ellman |  |  | 67 µM |
| C=C1C(=O)O[C@H]2[C@H]1CC/C(C)=C/CC[C@@]1(C)O[C@@H]21 | Replicase polyprotein 1ab, main protease (rep, Severe acute respiratory syndrome coronavirus 2, UniProt P0DTD1) | luciferase reporter, inhibitor | SARS-CoV-2 | 48 h | 0.66 µM |
| NNC(=O)c1cnc2c(=O)[nH]c(N)nc2n1 | Ricin A chain | recovery of translation, inhibitor, in vitro luciferase translation | rabbit reticulocyte lysate |  | < 1000 µM |

| Structure (SMILES) | target | assay | system | conditions | IC50 |
| --- | --- | --- | --- | --- | --- |
| COc1cc(/C=C/C(=O)N[C@H](COC(=O)c2ccccc2)C(=O)NC2CCCCC2)cc(OC)c1OC | rep R3428I 3C-like proteinase | enzyme activity, inhibitor, HPLC substrate depletion |  | pH 4.0 | 65 µM |
| COc1ccc(C(=O)c2cnc3c(=O)[nH]c(N)nc3n2)cc1 | Ricin A chain | recovery of translation, inhibitor, in vitro luciferase translation | rabbit reticulocyte lysate |  | no inhibition |
| O=C(/C=C/c1ccccc1)N[C@@H](COC(=O)c1c(Cl)cc(Cl)cc1Cl)C(=O)NC1CCCCC1 | rep R3428I 3C-like proteinase | enzyme activity, inhibitor, HPLC substrate depletion |  | pH 4.0 | 550 µM |
| COc1cc(/C=C/C(=O)O[C@@H](C(=O)NC2CCCCC2)[C@@H](NC(=O)/C=C/c2ccccc2)c2ccccc2)cc(OC)c1OC | Replicase polyprotein 1a R3428I 3C-like proteinase | enzyme activity, inhibitor |  | pH 4.0 | 250 µM |
| CC(C)C[C@H](NC(=O)[C@@H](NC(=O)CNc1ccccc1)C(C)C)C(=O)N[C@@H](C[C@@H]1CCNC1=O)C(=O)c1nc2ccccc2s1 | rep R3428I 3C-like proteinase | enzyme activity, inhibitor, HPLC |  | 60 min, 37 °C, with: substrate 111 µM | 1.5 µM |
| CC(=O)OC[C@@H](NC(=O)/C=C/c1ccccc1)C(=O)NC1CCCCC1 | rep R3428I 3C-like proteinase | enzyme activity, inhibitor, HPLC substrate depletion |  | pH 4.0 | 550 µM |
| CC(=O)Nc1ccc(/C=N/Nc2ccc(C(=O)c3c(C)cc4ccccn34)cc2[N+](=O)[O-])cc1 | Botulinum neurotoxin type A light chain | inhibitor, FRET, YFP-SNAP25-CFP substrate |  | no reducing agent | > 200 µM |
| CC(C)OP(=S)(OC(C)C)SCCNS(=O)(=O)c1ccccc1 | ACHE (Homo sapiens, UniProt P22303) | enzyme activity, inhibitor, fluorescence |  | no microsomes | 52.6 ± 3.42 µM |
| CSCC[C@H](NC(=O)[C@H](CC(=O)O)NC(=O)[C@@H](N)CC(=O)O)C(=O)NCC(=O)N[C@@H](Cc1ccccc1)C(=O)NCC(=O)N[C@@H](CC(C)C)C(=O)N[C@@H](Cc1ccccc1)C(=O)N[C@@H](CC(=O)O)C(=O)O | Shiga-like toxin 2 subunit A A1 fragment | ribosome depurination | yeast ribosomes | pH 7.4 | 26 ± 4 µM |
| CC[C@H](C)[C@@H]1NC(=O)[C@H](CCC(=O)O)NC(=O)[C@@H]2CCCN2C(=O)[C@H](Cc2c[nH]cn2)NC(=O)[C@H](CCCCC(=O)O)NC(=O)[C@H](CC(C)C)NC(=O)[C@H](Cc2c[nH]cn2)NC(=O)[C@@H]2CSSC[C@H](NC(=O)CN)C(=O)N[C@@H](CSSC[C@@H](C(N)=O)NC1=O)C(=O)N[C@@H](CO)C(=O)N[C@@H](Cc1c[nH]cn1)C(=O)N1CCC[C@H]1C(=O)N[C@@H](C)C(=O)N2 | Neuronal acetylcholine receptor; alpha4/beta2 (Rattus norvegicus, UniProt P09483+P12390) | ACh-evoked current, antagonist, two-electrode voltage clamp | Xenopus laevis oocytes | with: ACh 100 µM | 0.572 µM |
| Cc1cccc([N+](=O)[O-])c1C(=O)OC[C@H](NC(=O)/C=C/c1ccccc1)C(=O)NC1CCCCC1 | rep R3428I 3C-like proteinase | enzyme activity, inhibitor, HPLC substrate depletion |  | pH 4.0 | 65 µM |
| CC[C@H](C)[C@@H]1NC(=O)[C@H](CO)NC(=O)[C@@H]2CSSC[C@H](NC(=O)CN)C(=O)N[C@@H](CSSC[C@@H](C(N)=O)NC(=O)[C@H](CC(C)C)NC(=O)[C@H](CCC(=O)O)NC(=O)[C@@H]3CCCN3C(=O)[C@H](Cc3c[nH]cn3)NC(=O)[C@H](CC(N)=O)NC1=O)C(=O)N[C@@H](CO)C(=O)N[C@@H](Cc1c[nH]cn1)C(=O)N1CCC[C@H]1C(=O)N[C@@H](C)C(=O)N2 | Chrna3/Chrnb2/Chrna6 with beta3 subunit | ion current, antagonist, two-electrode voltage clamp | Xenopus laevis oocytes | with: 100 µM acetylcholine | 0.0134 µM |
| COc1ccccc1/C=C/C(=O)N[C@@H](COC(=O)c1ccccc1)C(=O)NC1CCCCC1 | rep R3428I 3C-like proteinase | enzyme activity, inhibitor, HPLC substrate depletion |  | pH 4.0 | 155 µM |
| O=C(c1ccc2c(c1)OCO2)C1CCCN(C2CCN(CCc3ccccc3)CC2)C1 (stereo not shown) | Botulinum neurotoxin type A light chain | inhibitor, FRET, SNAPtide substrate |  | no reducing agent | 0.5 ± 0.2 µM |
| O=C(/C=C/c1ccccc1)N[C@@H](c1ccccc1)[C@@H](OC(=O)CCc1ccccc1)C(=O)NC1CCCCC1 | Replicase polyprotein 1a R3428I 3C-like proteinase | enzyme activity, inhibitor |  | pH 4.0 | 65 µM |

Excerpt of the above:
| Structure (SMILES) | target | assay | system | conditions | IC50 |
| --- | --- | --- | --- | --- | --- |
| CNC(=O)c1cnc2c(=O)[nH]c(N)nc2n1 | Ricin A chain | recovery of translation, inhibitor, in vitro luciferase translation | rabbit reticulocyte lysate |  | 1600 µM |
| CSCC[C@H](NC(=O)[C@@H](N)CC(=O)O)C(=O)NCC(=O)N[C@@H](Cc1ccccc1)C(=O)NCC(=O)N[C@@H](CC(C)C)C(=O)N[C@@H](Cc1ccccc1)C(=O)N[C@@H](CC(=O)O)C(=O)O | Shiga-like toxin 2 subunit A A1 fragment | ribosome depurination | yeast ribosomes | pH 7.4 | 23 ± 4 µM |
| O=C(/C=C/c1ccc(OC(=O)c2ccccc2)cc1)N[C@@H](COC(=O)c1ccccc1)C(=O)NC1CCCCC1 | rep R3428I 3C-like proteinase | enzyme activity, inhibitor, HPLC substrate depletion |  | pH 4.0 | 95 µM |
